Experimental data collected from several papers.
Each line is one published result; not all experiments were run side by side. “And” joins repeats or separate records; there may be more than shown. ± gives the spread as reported.
TOP2A: DNA topoisomerase 2-alpha (TOP2A, Homo sapiens, UniProt P11388)
UniProt P11388, sequence (whole entry, looked up): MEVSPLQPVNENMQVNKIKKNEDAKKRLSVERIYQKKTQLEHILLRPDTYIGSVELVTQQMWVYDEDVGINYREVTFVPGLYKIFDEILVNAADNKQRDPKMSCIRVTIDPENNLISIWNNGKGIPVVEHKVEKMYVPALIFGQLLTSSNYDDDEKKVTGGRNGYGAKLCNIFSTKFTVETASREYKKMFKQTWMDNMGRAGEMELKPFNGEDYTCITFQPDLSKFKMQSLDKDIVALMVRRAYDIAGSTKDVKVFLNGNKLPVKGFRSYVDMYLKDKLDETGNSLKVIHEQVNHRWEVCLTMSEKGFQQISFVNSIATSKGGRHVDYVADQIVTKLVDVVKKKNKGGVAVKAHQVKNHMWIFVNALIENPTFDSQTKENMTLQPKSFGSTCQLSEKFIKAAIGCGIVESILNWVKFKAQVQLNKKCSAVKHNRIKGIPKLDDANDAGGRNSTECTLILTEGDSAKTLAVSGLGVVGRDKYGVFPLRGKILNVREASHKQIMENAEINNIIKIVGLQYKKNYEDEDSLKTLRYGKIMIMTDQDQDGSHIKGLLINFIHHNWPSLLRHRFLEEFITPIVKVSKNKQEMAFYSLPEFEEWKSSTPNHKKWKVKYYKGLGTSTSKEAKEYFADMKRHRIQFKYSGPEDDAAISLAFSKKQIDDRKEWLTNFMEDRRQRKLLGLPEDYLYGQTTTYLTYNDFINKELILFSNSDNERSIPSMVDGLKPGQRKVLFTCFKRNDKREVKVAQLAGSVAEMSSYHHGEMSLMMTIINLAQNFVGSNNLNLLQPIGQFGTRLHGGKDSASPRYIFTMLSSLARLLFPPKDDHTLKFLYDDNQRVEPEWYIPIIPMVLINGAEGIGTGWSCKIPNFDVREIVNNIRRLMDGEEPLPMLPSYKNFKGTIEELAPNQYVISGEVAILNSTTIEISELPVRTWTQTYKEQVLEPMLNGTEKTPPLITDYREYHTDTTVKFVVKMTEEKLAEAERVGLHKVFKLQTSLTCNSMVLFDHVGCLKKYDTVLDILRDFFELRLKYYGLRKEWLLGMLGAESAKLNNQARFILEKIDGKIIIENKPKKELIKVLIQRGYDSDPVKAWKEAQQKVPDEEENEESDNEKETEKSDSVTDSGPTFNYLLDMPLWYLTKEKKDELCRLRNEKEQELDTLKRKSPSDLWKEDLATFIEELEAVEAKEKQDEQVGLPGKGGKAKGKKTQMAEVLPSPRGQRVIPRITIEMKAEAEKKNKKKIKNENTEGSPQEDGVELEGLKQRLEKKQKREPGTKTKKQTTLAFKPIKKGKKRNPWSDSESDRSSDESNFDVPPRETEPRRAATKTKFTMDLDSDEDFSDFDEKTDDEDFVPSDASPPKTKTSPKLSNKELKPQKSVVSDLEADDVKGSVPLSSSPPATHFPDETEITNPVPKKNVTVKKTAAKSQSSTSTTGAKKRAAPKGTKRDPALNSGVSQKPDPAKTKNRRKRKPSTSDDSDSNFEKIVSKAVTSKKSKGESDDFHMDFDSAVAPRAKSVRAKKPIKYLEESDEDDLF
Pteridine reductase 1: Pteridine reductase 1 (Leishmania major, UniProt Q01782)
MAP4K3: Mitogen-activated protein kinase kinase kinase kinase 3 (MAP4K3, Homo sapiens, UniProt Q8IVH8)
UniProt Q8IVH8, sequence (whole entry, looked up): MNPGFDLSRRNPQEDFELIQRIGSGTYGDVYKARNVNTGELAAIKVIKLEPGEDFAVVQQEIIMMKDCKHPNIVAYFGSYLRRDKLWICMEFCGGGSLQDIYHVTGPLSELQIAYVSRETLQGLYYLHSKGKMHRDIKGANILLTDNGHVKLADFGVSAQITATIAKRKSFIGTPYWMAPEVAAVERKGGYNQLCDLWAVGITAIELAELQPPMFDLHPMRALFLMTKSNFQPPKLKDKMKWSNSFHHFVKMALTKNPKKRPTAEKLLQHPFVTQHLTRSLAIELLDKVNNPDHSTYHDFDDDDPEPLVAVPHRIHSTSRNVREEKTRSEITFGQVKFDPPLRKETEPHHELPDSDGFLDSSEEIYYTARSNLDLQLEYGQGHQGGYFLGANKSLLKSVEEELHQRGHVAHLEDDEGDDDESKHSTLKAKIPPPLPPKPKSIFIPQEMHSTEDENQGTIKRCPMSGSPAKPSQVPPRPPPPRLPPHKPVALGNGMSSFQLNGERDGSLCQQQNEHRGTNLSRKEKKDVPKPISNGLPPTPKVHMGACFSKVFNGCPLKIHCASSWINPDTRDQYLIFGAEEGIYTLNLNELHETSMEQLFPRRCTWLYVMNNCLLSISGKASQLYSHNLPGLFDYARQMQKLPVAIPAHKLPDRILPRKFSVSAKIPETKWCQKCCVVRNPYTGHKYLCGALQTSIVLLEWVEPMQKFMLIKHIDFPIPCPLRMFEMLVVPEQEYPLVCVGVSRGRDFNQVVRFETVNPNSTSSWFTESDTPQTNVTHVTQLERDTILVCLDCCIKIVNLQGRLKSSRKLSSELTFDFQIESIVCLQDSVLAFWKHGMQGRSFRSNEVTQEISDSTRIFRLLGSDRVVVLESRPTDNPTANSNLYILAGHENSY
BEST2: Bestrophin-2a (BEST2, Homo sapiens, UniProt Q8NFU1)
UniProt Q8NFU1, sequence (whole entry, looked up): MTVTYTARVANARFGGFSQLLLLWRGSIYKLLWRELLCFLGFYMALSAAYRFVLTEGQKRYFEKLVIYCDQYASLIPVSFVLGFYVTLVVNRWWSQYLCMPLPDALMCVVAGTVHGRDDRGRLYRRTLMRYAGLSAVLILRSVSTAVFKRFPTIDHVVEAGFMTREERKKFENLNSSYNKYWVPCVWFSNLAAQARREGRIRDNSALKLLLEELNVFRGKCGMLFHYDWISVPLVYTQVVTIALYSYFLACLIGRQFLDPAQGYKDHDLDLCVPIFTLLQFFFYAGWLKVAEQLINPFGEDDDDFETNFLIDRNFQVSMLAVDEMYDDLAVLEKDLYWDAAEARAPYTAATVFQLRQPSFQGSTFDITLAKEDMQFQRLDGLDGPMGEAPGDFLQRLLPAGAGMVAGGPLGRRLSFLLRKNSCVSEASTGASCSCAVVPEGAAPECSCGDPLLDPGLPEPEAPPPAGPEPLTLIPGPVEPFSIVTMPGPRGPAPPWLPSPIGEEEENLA
ATP2A2: ATP2A2 (Sus scrofa, UniProt P11607)
Cereblon/Ikaros: Cereblon/Ikaros (Homo sapiens, UniProt Q13422+Q96SW2)
T1: G-quadruplex RNA (Homo sapiens); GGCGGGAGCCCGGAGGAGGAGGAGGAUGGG
UniProt P07550, sequence (whole entry, looked up): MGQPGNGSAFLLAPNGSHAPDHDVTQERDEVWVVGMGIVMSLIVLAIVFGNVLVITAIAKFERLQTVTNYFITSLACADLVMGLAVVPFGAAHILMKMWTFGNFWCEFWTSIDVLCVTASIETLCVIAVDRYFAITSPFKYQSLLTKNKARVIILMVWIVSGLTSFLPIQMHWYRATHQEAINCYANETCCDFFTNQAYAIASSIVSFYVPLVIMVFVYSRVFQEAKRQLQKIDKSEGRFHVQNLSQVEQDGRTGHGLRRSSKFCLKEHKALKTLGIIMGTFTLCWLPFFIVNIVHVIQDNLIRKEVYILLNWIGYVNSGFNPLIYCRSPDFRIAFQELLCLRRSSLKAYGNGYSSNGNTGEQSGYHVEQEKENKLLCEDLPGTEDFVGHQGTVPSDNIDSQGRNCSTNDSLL
UniProt Q80VM9, sequence (whole entry, looked up): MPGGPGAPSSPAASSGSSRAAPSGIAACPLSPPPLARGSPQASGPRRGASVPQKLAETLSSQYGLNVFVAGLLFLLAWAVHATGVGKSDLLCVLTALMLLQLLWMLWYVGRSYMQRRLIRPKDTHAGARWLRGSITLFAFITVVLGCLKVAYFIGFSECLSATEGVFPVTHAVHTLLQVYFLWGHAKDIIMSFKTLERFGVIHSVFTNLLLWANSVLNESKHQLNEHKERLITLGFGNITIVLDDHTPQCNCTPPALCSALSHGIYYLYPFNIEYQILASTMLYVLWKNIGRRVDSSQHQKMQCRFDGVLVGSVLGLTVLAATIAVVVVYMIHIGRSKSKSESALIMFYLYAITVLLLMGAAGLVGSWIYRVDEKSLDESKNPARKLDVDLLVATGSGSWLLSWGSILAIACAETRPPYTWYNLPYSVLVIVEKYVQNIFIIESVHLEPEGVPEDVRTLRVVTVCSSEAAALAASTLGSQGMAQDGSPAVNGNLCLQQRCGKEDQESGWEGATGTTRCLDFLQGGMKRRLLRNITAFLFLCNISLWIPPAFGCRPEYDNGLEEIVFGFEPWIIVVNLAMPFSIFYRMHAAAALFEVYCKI
UniProt Q16774, sequence (whole entry, looked up): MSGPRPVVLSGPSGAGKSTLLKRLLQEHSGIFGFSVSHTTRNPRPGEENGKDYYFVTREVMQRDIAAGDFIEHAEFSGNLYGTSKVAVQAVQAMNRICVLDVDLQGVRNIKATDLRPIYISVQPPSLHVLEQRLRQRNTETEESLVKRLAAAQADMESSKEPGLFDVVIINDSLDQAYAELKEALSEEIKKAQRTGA
UniProt P31941, sequence (whole entry, looked up): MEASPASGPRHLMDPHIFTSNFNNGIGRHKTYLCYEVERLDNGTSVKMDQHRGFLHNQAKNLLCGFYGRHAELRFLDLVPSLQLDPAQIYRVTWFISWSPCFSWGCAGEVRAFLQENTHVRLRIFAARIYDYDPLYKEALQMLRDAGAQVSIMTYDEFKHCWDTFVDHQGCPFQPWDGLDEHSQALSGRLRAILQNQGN
UniProt P51575, sequence (whole entry, unmodified, looked up): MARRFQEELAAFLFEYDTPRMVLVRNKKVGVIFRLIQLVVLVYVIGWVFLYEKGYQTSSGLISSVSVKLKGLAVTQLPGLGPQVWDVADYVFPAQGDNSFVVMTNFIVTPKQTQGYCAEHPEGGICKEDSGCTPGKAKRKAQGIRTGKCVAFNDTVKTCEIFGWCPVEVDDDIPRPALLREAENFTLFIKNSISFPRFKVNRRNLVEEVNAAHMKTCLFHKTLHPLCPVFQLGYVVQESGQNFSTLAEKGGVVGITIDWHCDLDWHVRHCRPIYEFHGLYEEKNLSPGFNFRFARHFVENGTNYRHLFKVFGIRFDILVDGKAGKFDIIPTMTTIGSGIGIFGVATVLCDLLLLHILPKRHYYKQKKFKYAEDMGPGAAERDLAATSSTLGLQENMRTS
UniProt P08246, sequence (whole entry, looked up): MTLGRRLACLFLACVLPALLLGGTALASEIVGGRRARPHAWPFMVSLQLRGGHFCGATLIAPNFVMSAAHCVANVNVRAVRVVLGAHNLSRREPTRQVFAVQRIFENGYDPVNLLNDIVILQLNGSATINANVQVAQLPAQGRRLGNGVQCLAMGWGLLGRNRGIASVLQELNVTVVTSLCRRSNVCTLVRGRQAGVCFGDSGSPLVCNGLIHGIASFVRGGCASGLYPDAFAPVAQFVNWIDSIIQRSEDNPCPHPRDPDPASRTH

O=C(Nc1cccc2ncccc12)C1CCCN(S(=O)(=O)c2cccs2)C1 (stereo not drawn)
SPR response (AASS, LKR domain (Homo sapiens, UniProt Q9UDR5); binding, surface plasmon resonance; 15 µM): 3.89 RU

C=CC(=O)N1CCC(COCC(=O)N2CCN(c3nc(-c4cnc(N)nc4C(F)F)nc(N4CCOC[C@@H]4C)n3)CC2)CC1
remaining binding (PIK3C2G (Homo sapiens, UniProt O75747); KINOMEscan; 1 µM): 79%

O=c1cc(-c2ccc(OS(=O)(=O)O)cc2)oc2cc(OS(=O)(=O)O)cc(OCc3cccc(COc4cc(OS(=O)(=O)O)cc5oc(-c6ccc(OS(=O)(=O)O)cc6)cc(=O)c45)n3)c12
Km (Neutrophil elastase (ELANE, Homo sapiens, UniProt P08246); 250 nM, together with: chromogenic substrate): 908 ± 65 µM

CC(=C/C(=O)O)/C=C/C=C(\C)C1C=C2C(C)(C)CCCC2(C)O1 (stereo not drawn)
plasma membrane localization (Rhodopsin (RHO, Homo sapiens, UniProt P08100, E181K); immunostaining, measured: opsin; COS-7 transfected; 10.00 µM, unit not given; relative to: surface over total stained cells): 0.82

OCCN1CCN(CCCN2c3ccccc3Sc3ccc(C(F)(F)F)cc32)CC1
Hill slope (KCNK2 (Homo sapiens, UniProt O95069); PIP2 binding, BRET competition; together with: FL-PIP2 500 nM): 1.02 ± 0.35

Cc1ccc(N(C)C(=O)/C=C/c2ccco2)cc1
potentiation (Chrna7 (Rattus norvegicus, UniProt Q05941); potentiator; concentration not given, holding potential -80 mV, together with: acetylcholine 30 µM): inactive

O=C(CCCCc1ccc(CO)cc1)C(F)(F)C(F)(F)F
selectivity ratio (PLA2G6 (Homo sapiens, UniProt O60733); PLA2 activity; relative to: IC50 GIVA cPLA2 over IC50 PLA2G6): ~192

Nc1nc2c(ncn2[C@@H]2O[C@@H]3COP(=O)(O)O[C@H]4[C@@H](O)[C@H](n5cnc6c(=O)[nH]c(N)nc65)O[C@@H]4COP(=O)(O)O[C@H]3[C@H]2O)c(=O)[nH]1
ΔS (Cell cycle histidine kinase CckA, CA domain (Caulobacter vibrioides, UniProt Q9X688); ITC; together with: AMPPNP 5 mM): 28.2 cal/mol/K

CC(=O)OC[C@H](COc1ccc(C(C)(C)c2ccc(OC[C@@H](CCl)OC(C)=O)cc2)cc1)OC(C)=O
response (Androgen receptor (AR, Homo sapiens, UniProt P10275); antagonist, nuclear translocation; 100 µM; relative to: control): < 24%

O=c1nc(SCc2cc(F)cc(C(F)(F)F)c2)nc(SCc2ccc3nc(Cl)ccc3c2)[nH]1
decatenated DNA (TOP2A; decatenation; 7.8 µM, replicate 2): 91.8%

COCCC(=O)N1CCC(Oc2ccccc2)C1 (stereo not drawn)
log fold enrichment (Histone-lysine N-methyltransferase SETDB1, triple tudor domain (SETDB1, Homo sapiens, UniProt Q15047); binding, affinity selection mass spectrometry; relative to: other proteins in batch): -0.125

CCN(Cc1cnc2nc(N)nc(N)c2n1)c1ccc(C(=O)N2CCC(C(=O)OC)CC2)cc1
partition index (Pteridine reductase 1; hDHFR weight 10; relative to: LmPTR1, LmDHFR over hDHFR, 1.0 selective, 0.0 non-selective): 0.49

C1=C/COCc2cc(ccc2OCCN2CCCC2)Nc2nccc(n2)-c2cccc(c2)COC/1
percent of control (MAP4K3; concentration not given): 80%

O=C(O)CC[C@@H](C(=O)O)N1C(=O)c2ccccc2C1=O
thermal shift (Uncharacterized protein (Pelagibacter ubique, UniProt Q4FM26); differential scanning fluorimetry; Candidatus Pelagibacter ubique; in-house screen): 6.45 °C

O=C(O)c1ccc([N+](=O)[O-])cc1
current density (BEST2; whole-cell patch clamp; HEK293 transiently expressing channel; concentration not given, membrane potential 80 mV): 221 pA/pF and 279 pA/pF and 260 pA/pF and 74.1 pA/pF and 313 pA/pF

COc1cc(OC)cc(-c2cc(C(C)=O)n3ccccc23)c1
delta Tm (BRD9 (Homo sapiens, UniProt Q9H8M2); thermal stability, thermal shift; 200 µM, together with: protein 10 µM): 6.5 °C

O=c1nc(SCc2cc(F)cc(C(F)(F)F)c2)nc(SCc2ccc3nc(OCCN4CCOCC4)ccc3c2)[nH]1
decatenated DNA (TOP2A; decatenation; 31.25 µM, replicate 2): 0.6%

CCCCCCCS(=O)(=O)CCc1ccc2[nH]cnc2c1
ATPase activity (ATP2A2; pig microsomes; concentration not given): no effect

C#CCN(Cc1cnc2nc(N)nc(N)c2n1)c1ccc(C(=O)N2CCC(C(=O)OC)CC2)cc1
partition index (Pteridine reductase 1; hDHFR weight 10; relative to: LmPTR1, LmDHFR over hDHFR, 1.0 selective, 0.0 non-selective): 0.97

CC(C)c1noc2ncc(C(=O)c3ccccc3O)cc12
normalized current I2/I1 (Otop1 (Mus musculus, UniProt Q80VM9); alkali-evoked current, whole-cell patch-clamp; 10 µM, pH 8.5): 2.67 and 2.85 and 1.6

CO[C@@H]1[C@@H]2OP(=O)(O)OC[C@H]2O[C@H]1n1c(Sc2ccc(Cl)cc2)nc2c(N)ncnc21
relative binding affinity (anti-cGMP antibody; antibody binding, competitive cGMP EIA; concentration not given, acetylated samples; relative to: EC50 cGMP over EC50 cpd, higher = stronger binding): 0.0002

O=c1nc(SCc2cc(F)cc(C(F)(F)F)c2)nc(SCc2csc3ccc(Cl)cc23)[nH]1
linear DNA (TOP2A; DNA cleavage; 3.9 µM, replicate 1): 0%

CN(c1ccccc1CNc1nc(Nc2ccc3c(c2)CC(=O)N3)ncc1C(F)(F)F)S(C)(=O)=O
Hill slope (PKN1 (Homo sapiens, UniProt Q16512); inhibitor): -0.613

O=c1nc(SCc2cc(F)cc(C(F)(F)F)c2)nc(SCc2nc3ccccc3[nH]2)[nH]1
mean decatenated DNA (TOP2A; decatenation; 7.8 µM): 100%

C=C1C(=O)O[C@@H]2C[C@@]3(C)CCCC(=C)[C@@H]3C[C@H]12
activation (RARA (Homo sapiens, UniProt P10276); reporter gene, Gal4 hybrid reporter; 10 µM; relative to: vehicle): 0.89 fold

O=C1CCC(N2C(=O)C=C(Nc3cccc(C4(NCCc5ccc(Cl)c(C(F)(F)F)c5)CCC4)c3)C2=O)C(=O)N1 (stereo not drawn)
Dmax (Cereblon/Ikaros; protein degradation, degrader, HiBiT luminescence; Jurkat): 85%

COc1ccc(C(=O)/C=C/c2cccc(-c3cccc(-c4ccc(CNCc5c(C)cc(C)[nH]c5=O)c(OC)n4)c3C)c2)cc1
degradation (CD274 (Homo sapiens, UniProt Q9NZQ7); degrader, western blot; HL-60; 1 µM): < 5%

O=c1nc(SCc2ccc(C(F)(F)F)cc2)nc(SCc2ccc3sccc3c2)[nH]1
decatenated DNA (TOP2A; decatenation; 15.6 µM, replicate 1): 82.6%

C=CC(=O)N1CCC[C@@H](n2nc(-c3ccc(Oc4ccccc4)cc3)c3c(N)ncnc32)C1
remaining activity (TXK (Homo sapiens, UniProt P42681); 0.1 µM): 73.6%

CC[C@@H](C)[C@@H](NC(=O)[C@@H](Cc1ccc(O)cc1)NC(=O)[C@H]1CCCN1C(=O)[C@@H](CCCNC(=N)N)NC(=O)[C@H](N)Cc1c[nH]cn1)C(=O)N[C@H](C)C(=O)N[C@H](Cc1c[nH]cn1)C(=O)N[C@H](CCCNC(=N)N)C(=O)N[C@@H](C(=O)N[C@H](Cc1ccc(O)cc1)C(=O)N[C@H](CO)C(=O)N[C@H](Cc1ccccc1)C(N)=O)C(C)C
surface TFRC expression (Transferrin receptor protein 1 (Tfrc, Mus musculus, UniProt Q62351); flow cytometry; MC-38; 48 h, unit not given; relative to: 0 h): 0.491

CCCCCCCC/C=C\CCCCCCCC(=O)NCCc1ccc(O)c(O)c1
maximal open probability (Trpv1 (Mus musculus, UniProt Q704Y3, Y555F); ion current, agonist, whole-cell patch clamp; Y555F; relative to: 3 mM 2-APB): 0.27 ± 0.06

Nc1nc2c(ncn2[C@@H]2O[C@H](COP(=O)(O)O)[C@@H](O)[C@H]2O)c(=O)[nH]1
reaction velocity (GUK1 (Homo sapiens, UniProt Q16774); enzyme activity, NADH-coupled; 62.5 µM, together with: NaCl 150 mM): 0.0477 µM/s and 0.0684 µM/s and 0.0819 µM/s

Nc1ccc(C(=O)O)cc1
current density (BEST2; whole-cell patch clamp; HEK293 transiently expressing channel; concentration not given, membrane potential -100 mV): -396 pA/pF and -74.3 pA/pF and -254 pA/pF and -335 pA/pF and -175 pA/pF and -295 pA/pF

CC1(C)O[C@@H]2[C@@H](CO[C@@]3(COS(N)(=O)=O)OC(C)(C)O[C@@H]23)O1
intrinsic binding TΔS (CA4 (Homo sapiens, UniProt P22748); ITC; concentration not given, 25 °C): 5.81 kcal/mol

C[S+](CC[C@H](N)C(=O)[O-])C[C@H]1O[C@@H](n2cnc3c(N)ncnc32)[C@H](O)[C@@H]1O (stereo partly drawn)
apparent Km (KMT2C (Homo sapiens, UniProt Q8NEZ4); substrate, enzyme-coupled methylation; together with: H3 peptide 1600 µM): 20.1 ± 1.2 µM

CC[S+]([O-])c1nc(-c2ccccc2)cc(C(F)(F)F)n1 (stereo not drawn)
Tm2 (KPNB1 (Homo sapiens, UniProt Q14974); thermal shift; 30 µM, 2 h): 52.3 °C

Nc1ncnc2c1ncn2[C@@H]1O[C@H](COP(=O)(O)CP(=O)(O)OP(=O)(O)O)[C@@H](O)[C@H]1O
calcium influx (P2X purinoceptor 1 (P2RX1, Homo sapiens, UniProt P51575, K215A); calcium influx; 100 nM; relative to: ionomycin response): 72.1% and 52.2%

C[C@@H]1C[C@H](Nc2ccccc2)c2cc(F)ccc2N1C(=O)c1ccc(C#N)nc1
pIC50 Z-score (Ecdysone receptor (Aedes albopictus, UniProt Q9U3Y4); ligand binding, inhibitor; intact cells; together with: [3H]ponasterone A; direction not given): 1.36

O=c1nc(SCc2cc(F)cc(C(F)(F)F)c2)nc(SCc2cccc(C(F)(F)F)c2)[nH]1
decatenated DNA (TOP2A; decatenation; 7.8 µM, replicate 1): 97.9%

Cc1ccc2c(c1)sc(-c1ccc(N(C)C)cc1)[n+]2C
binding (T1, G-quadruplex RNA (Homo sapiens); ThT fluorescence; potassium phosphate 100 mM, reduced with Li+): binds

O=c1nc(SCc2cc(F)cc(C(F)(F)F)c2)nc(SCc2ccc3ccccc3n2)[nH]1
decatenated DNA (TOP2A; decatenation; 7.8 µM, replicate 1): 100%

Cc1cc(=O)oc2cc(O[C@@H]3O[C@H](CO)[C@@H](O)[C@H](O)[C@H]3O)ccc12
Vmax (GBA1 (Homo sapiens, UniProt P04062, R534H); substrate; 5 nM enzyme): 1.7 pmol/min

O=C1C(SCCO)=C(SCCO)C(=O)c2ccccc21
IC50 fold increase (TGM2 (Homo sapiens, UniProt P21980); transglutaminase activity, inhibitor; together with: 0.02% Triton X-100; relative to: with over without Triton X-100): 1.3 to 2.5 fold

C=CC(=O)N1CCC(C(=O)NCC(=O)N2CCN(c3nc(-c4cnc(N)nc4C(F)F)nc(N4CCOCC4)n3)CC2)CC1
remaining binding (MAP4K3; KINOMEscan; 1 µM): 86%

CSCC[C@H](NC(=O)[C@H](CCC(=O)O)NC(=O)[C@H](CCC(N)=O)NC(=O)[C@H](CO)NC(=O)CCCC[C@@H]1SC[C@@H]2NC(=O)N[C@@H]21)C(=O)N[C@H](C(=O)N[C@@H](Cc1c[nH]cn1)C(=O)N[C@@H](CC(C)C)C(=O)N[C@H](C(=O)N[C@@H](CC(N)=O)C(=O)N[C@@H](CCCCN)C(=O)N[C@@H](CCC(=O)O)C(=O)N1CCC[C@H]1C(=O)N[C@@H](CO)C(=O)N[C@@H](CCC(=O)O)C(=O)N[C@H](C(=O)N1CCC[C@H]1C(=O)N[C@@H](CC(=O)O)C(=O)N[C@@H](CCC(N)=O)C(=O)N[C@@H](CS)C(=O)N[C@@H](CCSC)C(=O)N[C@H](C(=O)N[C@@H](C)C(=O)N[C@@H](CC(=O)O)C(=O)N[C@@H](CCC(=O)O)C(=O)O)[C@@H](C)O)[C@@H](C)O)C(C)C)C(C)C
relative binding affinity (mouse Tiam2 R716A; SPR; concentration not given; relative to: wild type): ~20%

CC(C)c1ccc(CSc2nc(SCc3ccc4sccc4c3)[nH]c(=O)n2)cc1
mean decatenated DNA (TOP2A; decatenation; 125 µM): 0.07%

O=C(O)c1ccc(O)cc1
current density (BEST2; whole-cell patch clamp; HEK293 transiently expressing channel; concentration not given, membrane potential 40 mV): 78.4 pA/pF and 62.2 pA/pF and 43.1 pA/pF and 49.8 pA/pF and 106 pA/pF and 89.2 pA/pF and 80.1 pA/pF

CCC1(O)CCCN(C(=O)c2ccc(-c3ccc(F)c(NC(=O)CCl)c3)cc2)C1 (stereo not drawn)
unmodified protein (DNA dC->dU-editing enzyme APOBEC-3A (Homo sapiens, UniProt P31941); covalent adduct, intact protein MS; 3 h, 10-fold excess, 250 µM): 0%

c1ccc(CCCCCOCCc2ccc3occc3c2)cc1
Emax (ATP2A2; ATPase Vmax increase, activator; pig microsomes; 0.1 to 50 µM; relative to: vehicle): ≤ 57%

CCC(C)(NCCc1ccccc1)c1cccc(NC2=CC(=O)N(C3CCC(=O)NC3=O)C2=O)c1 (stereo not drawn)
Dmax (Cereblon/Ikaros; protein degradation, degrader, HiBiT luminescence; Jurkat): 64%

N[C@@H](Cc1ccccc1)C(=O)O
cAMP level (ADRB2 (Homo sapiens, UniProt P07550); HEK293 expressing β2AR; 500 µM): 22.2 pmol/mg protein and 23.6 pmol/mg protein and 19.4 pmol/mg protein and 23.8 pmol/mg protein and 25.1 pmol/mg protein
